Measurements from different studies.
Every numbered part comes from another study and shows a few of its results, in no order. Substitutions count along the parent as printed.

Series 1
Target: PABPC1L2, full length, GST fusion (mouse, UniProt A0ABA7IW68)
Technique: RNAcompete
Molecule type: RNA
Medium: in vitro
Tested at: 20 nM
Notes: 7-mer, probes averaged, single round
Baseline: mean of 7-mers
Reading: higher = stronger binding
Construct (chain): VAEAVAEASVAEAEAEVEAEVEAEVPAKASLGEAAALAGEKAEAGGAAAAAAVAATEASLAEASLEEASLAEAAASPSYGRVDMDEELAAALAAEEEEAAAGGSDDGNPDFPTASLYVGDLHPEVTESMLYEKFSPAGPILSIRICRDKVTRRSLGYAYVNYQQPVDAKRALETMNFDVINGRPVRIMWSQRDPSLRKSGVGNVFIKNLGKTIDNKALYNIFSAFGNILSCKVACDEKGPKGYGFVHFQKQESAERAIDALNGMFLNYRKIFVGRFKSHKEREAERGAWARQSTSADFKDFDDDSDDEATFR
| Oligonucleotide | 7-mer Z-score |
| --- | --- |
| UAACCGC | -0.354 |
| AGACUUA | -0.106 |
| AUACCUA | -0.0482 |
| CGCUGUG | -0.318 |
| ACAAUAA | 1.16 |
| GGCAUAC | 0.0932 |
| GAUAUGA | -0.0573 |
| UCGCACC | -0.429 |
| GCUCAAA | 0.321 |
| CAUGAAU | 0.0895 |
| GAGGUAC | 0.0243 |
| GGGCGCG | 0.0932 |
| ACGUAUU | -0.18 |
| UUUGAUG | -0.354 |
| UUCCAAG | -0.173 |
| UACGGGG | 0.151 |
| ACAAUCU | 0.0424 |
| CGCUUCA | -0.324 |
| AUCCUAG | -0.188 |
| UAGCUAA | -0.0881 |
| GUGCACC | -0.233 |
| UCUCAGA | -0.142 |
| AGACCGU | -0.358 |
| GGUGGGG | 0.347 |
| CAGGAUC | 0.0642 |

Series 2
Target: POU, POU domain (Salpingoeca helianthica)
Technique: Spec-seq
Molecule type: double-stranded DNA, one strand shown
Medium: in vitro
Tested at: not given
Notes: whole probe, mean of replicates
Baseline: not given
Reading: lower = stronger binding
Shared flanks, not repeated: GAGTCGTCTCGTCAGCAC … CCGTAGAGCACTCAGGTC
Residues (chain): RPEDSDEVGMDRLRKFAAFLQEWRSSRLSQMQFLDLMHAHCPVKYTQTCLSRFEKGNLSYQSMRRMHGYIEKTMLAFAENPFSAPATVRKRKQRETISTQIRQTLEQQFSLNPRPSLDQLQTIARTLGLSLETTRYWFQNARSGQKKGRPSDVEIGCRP
| Oligonucleotide | relative binding energy |
| --- | --- |
| ATGCATAA | 0.479 ln ratio |
| ATCGAAAT | 1.15 ln ratio |
| GACTTAAT | 0.111 ln ratio |
| ATGCCAAT | 1.27 ln ratio |
| ATGCAATC | 1.4 ln ratio |
| ATGCATCA | 1.29 ln ratio |
| ATATGGAT | 1.45 ln ratio |
| ATGTACAT | 1.29 ln ratio |
| ATGAGGAT | 1.33 ln ratio |
| ATTAGCAT | 0.3 ln ratio |
| GCCCTAAT | 0.594 ln ratio |
| ATAGTTAT | -0.663 ln ratio |
| AACATAAT | 0.3 ln ratio |
| GCACTAAT | 0.661 ln ratio |
| AGGGTAAT | 0.958 ln ratio |
| TCATTAAT | -1.13 ln ratio |
| ATGCGACC | 1.43 ln ratio |
| ATTCAAAT | 1.07 ln ratio |
| GGAGTAAT | 0.235 ln ratio |
| ATAGTGAT | 1.01 ln ratio |
| ATTAAAAT | 0.0196 ln ratio |

Series 3
Target: OGT, full length, His-tagged (human)
Technique: phage display, sequencing
Medium: in vitro
Tested at: 1 µg OGT
Notes: single substitutions, 15-mer displayed peptide, unchanged parent 6.14
Baseline: input library
Reading: higher = stronger binding
Parent: peptide; VAYPNSYMPKYQIST
| Variant | fold enrichment [fold] |
| --- | --- |
| VAYDNSYMPKYQIST [P4D] | 6.91 |
| VAYPNDYMPKYQIST [S6D] | 6.83 |
| VAYPNSYMPKYKIST [Q12K] | 0.993 |
| VAYPNSVMPKYQIST [Y7V] | 0.621 |
| VLYPNSYMPKYQIST [A2L] | 7.49 |
| VAYPNSYMPKIQIST [Y11I] | 2.32 |
| VAYPNSYMPKYQISQ [T15Q] | 0.676 |
| VAYPNSYAPKYQIST [M8A] | 3.92 |
| VAYPNSYMPKYQPST [I13P] | 0.314 |
| VAYPNSYMTKYQIST [P9T] | 1.35 |
| VAYPNSNMPKYQIST [Y7N] | 0.431 |
| VAYPSSYMPKYQIST [N5S] | 6.34 |
| VPYPNSYMPKYQIST [A2P] | 7.53 |
| VAYPNSYMPKTQIST [Y11T] | 0.597 |
| VAYPNSYHPKYQIST [M8H] | 0.959 |
| VAYPNSYMPKKQIST [Y11K] | 0.752 |
| VAYPNSYMDKYQIST [P9D] | 1.07 |
| VMYPNSYMPKYQIST [A2M] | 5.21 |
| VAYPNSYYPKYQIST [M8Y] | 2.77 |
| VAYPNSYMPKDQIST [Y11D] | 0.801 |
| VAYPNSYMPKYQLST [I13L] | 0.93 |

Series 4
Target: Interferon regulatory factor 5, full length, phosphomimetic (IRF5, Homo sapiens, UniProt Q13568-2, residues 1-514, K96S/S451D/S453D/S456D/S462D)
Technique: protein-binding microarray
Molecule type: double-stranded DNA, one strand shown
Medium: in vitro
Tested at: 250 nM
Notes: 60-bp whole probe
Added: salmon DNA 0.4 mg/ml
Baseline: random background probes
Reading: higher = stronger binding
Shared flanks, not repeated: GCCTAGCAC … GTCTTGATTCGCTTGACGCTGCTG
| Oligonucleotide | log fluorescence [z-score] |
| --- | --- |
| AACGGTTTCGGGACTGGGGACGTGCTA | 5.06 |
| CCTGGACGGGAGTGCGGTGCGTGCTAG | -0.716 |
| GACGATATCTGTTTCGAGACGTGCTAG | 4.3 |
| TTTCATTTTTTTTTTCATCAGTGCTAG | 8.85 |
| TTAGATTTCAGACTGGGTTAGTGCTAG | 0.221 |
| AACGGTATCGGTATCGGGACGTGCTAG | 7.03 |
| ACAGGAGTGTTTCTCAGTTTGTGCTAG | 0.211 |
| GACGGTTTCGACTTTCGGGTCGTGCTA | 9.02 |
| TTAGATTTCAGTTTCGAGTAGTGCTAG | 8.03 |
| TCACTCTCTCTATTCTGTGGGTGCTAG | 0.573 |
| TCATTTTTTTTTTTTTGACTGTGCTAG | 0.897 |
| TCAGTTTTCATTTTATGACTGTGCTAG | 2.6 |
| TCAGGTATCCTTCTCCTTTAGTGCTAG | 0.424 |
| TTAGGTTTCGGGTATCCGTTAGTGCTA | 8.91 |
| GACGAACTGGGGACTGGAGGCGTGCTA | -0.528 |
| TTAGGTTTCCTTTCCCATTAGTGCTAG | 1.63 |
| TTTGCTTTCCTGATGGTCTTGTGCTAG | 0.808 |
| TTAGATATCGGGTATCCATTAGTGCTA | 2.39 |
| GACGAACTGAATATCGAGACGTGCTAG | 1.03 |
| GACGGTTTCGACACTGGAGACGTGCTA | 4.81 |
| TTAGATATCATTCTCGATTAGTGCTAG | 1.78 |
| TTAGGACTGGGTTTCGTTTAGTGCTAG | 3.72 |
| GACGATTTCAGACTGGAGCCGTGCTAG | 0.0591 |
| GAAGGACTGGGGTTTCGGGACGTGCTA | 1.3 |
| TATTATATCTGTGTTATTAAGTGCTAG | 1.42 |

Series 5
Target: RING finger protein unkempt homolog, zinc fingers 1-6, GST-SBP tag (UNK, Homo sapiens, UniProt Q9C0B0, residues 30-357)
Technique: RNA Bind-n-Seq
Molecule type: RNA
Medium: in vitro
Tested at: not given
Notes: RNA with constant flanks, human and mouse sites, ends assumed
Baseline: input RNA pool
Reading: higher = stronger binding
Shared flanks, not repeated: GGGAGUUCUACAGUCCGACGAUC … CAACAGAGGAUUGAGCAUCA
Residues (chain): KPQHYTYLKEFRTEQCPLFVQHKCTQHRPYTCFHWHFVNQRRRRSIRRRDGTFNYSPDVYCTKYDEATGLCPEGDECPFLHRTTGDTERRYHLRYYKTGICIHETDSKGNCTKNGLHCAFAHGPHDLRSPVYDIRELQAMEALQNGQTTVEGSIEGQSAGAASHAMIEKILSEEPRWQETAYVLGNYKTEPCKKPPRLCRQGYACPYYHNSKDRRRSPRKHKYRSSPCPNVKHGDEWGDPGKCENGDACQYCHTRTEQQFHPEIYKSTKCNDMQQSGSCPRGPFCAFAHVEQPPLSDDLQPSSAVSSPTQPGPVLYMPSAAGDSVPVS
| Oligonucleotide | bound/input enrichment [ratio] |
| --- | --- |
| GAGAGCUGCCUGGUGUCAGGUAGAGAGGACACUGUACCUGGGUGAAUGAUCAGACCCUGGUAGCUAAGAAGGAACUUGUCCCUUUGAGUCAGUGUGCAGACCCCCUUUCAGGCCAUGCCU | 0.0864 |
| UAAACAUCUCACAUAUGAAAAUGUAGAGCGAUGGCUGAAAGAACUGAGAGAUCAUGCUGAUAGUAACAUUGUUAUCAUGCUUGUGGGCAAUAAGAGUGAUCUACGUCAUCUCAGGGCAGU | 0.193 |
| UUUAUUUCAGGGAAAUAAUUUUCCAGUUGUUUUGCUAUAUUCUGCAAAUAAAAACCGUGUUUCCUUUUUUCACUUAAACUUUGGUAGGAAACAAACUAAAGCAGACAAACAUUUCUUGUU | 0.245 |
| GAGCCCGAGAGGUGGCCAGACCGUCAUCAUCGUUCUAAUACAGCUACUUCCUCAGCCACCGGUAUGAGCCACGGGAAGAGAACCGACAUGCUCCCGGAGAUCGCCGCCGCCGUGGGUUUC | 0.133 |
| UUAAAAAAGAAUCCUUUGGGCCAGUGAAUAAAACAGGGCAAAUUUUAGUUAGAAAUUUAGAUAGAAAAUAUACACUUGCAACUUUCCUAGUGUCUCUGAGUCUGCAGCAGUCACUAUAGC | 81.3 |
| UUCGCCUGCGCCAAGCUCGCCCGCACCCCCGCUCUGAUCCGAGCUGGAUCCAGAGUUGCAUAUAGACCAAUUUCUGCAUCAGUGUUAUCUCGGCCAGAGACUAGGACUGGAGAGGGCUCU | 0.253 |
| AAAAGAGUGGUAAUUUUAUAAAUGCUUAUUUAUGUUAUAAAAUGGAGAUCAGAAAAAAAUUCUUUUUGCACUUUGGCCUAUCCAGUAUCUUAUUUAUUCUCUAGAUAAGCUAGGAUAUUA | 0.633 |
| UGGACUGAUCAAUAUGAAGAAGCUUUCACUAAUCAGUACAGUGCAGAUGUACAGAAUGCCCUUGAGCAACAUCUCCAUUCUAACAAGGAAUUUGUGGGCAAACCUGCAAUUUUAGACACU | 0.279 |
| UAGCAGCUAAUGAAGCCCAGCUUCUGAGGAAAAUUCAGUUGUUGUGCCUCAUGGAGAUGACUUUCACACGACCUGCCAAUCACAGACAACUCACUUUUGAAGAAAUUGCCAAAAGUGCUA | 0.091 |
| AUAGAGGCAGCACCCGAGUCCCAGAUGAUGCCAGCAAGCGUCUUAACUGGGAACGUUAUCAUAGAAACAAAGUUUUUUGACGACGAUCUUCUUGUAAGCACAUCCAGAGUGAGACUUUUC | 1.52 |
| GACAGUGAAGAAGAGAUUAGAGAAGCAUUCCGUGUGUUUGAUAAGGAUGGCAAUGGCUAUAUUAGUGCAGCAGAGCUUCGCCAUGUGAUGACAAACCUUGGCGAGAAGUUAACAGAUGAA | 1.05 |
